Measurements of several laboratories.
Several values in a cell are separate wells, animals, samples, runs or records. ± gives the spread as reported.
T1: ssDNA, aptamer; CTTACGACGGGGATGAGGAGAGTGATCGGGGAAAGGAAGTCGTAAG
T2: riboswitch RNA yjdF aptamer (Bacillus subtilis); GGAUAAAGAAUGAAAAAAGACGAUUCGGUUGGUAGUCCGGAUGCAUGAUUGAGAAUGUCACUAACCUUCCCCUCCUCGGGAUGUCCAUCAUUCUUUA
UniProt Q16774, sequence (whole entry, looked up): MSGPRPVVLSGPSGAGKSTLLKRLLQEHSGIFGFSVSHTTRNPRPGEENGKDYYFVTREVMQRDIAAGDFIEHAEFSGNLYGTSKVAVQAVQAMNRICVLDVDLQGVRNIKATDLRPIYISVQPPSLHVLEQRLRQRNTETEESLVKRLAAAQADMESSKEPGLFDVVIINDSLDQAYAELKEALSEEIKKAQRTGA
UniProt Q8NER1, sequence (whole entry, unmodified, looked up): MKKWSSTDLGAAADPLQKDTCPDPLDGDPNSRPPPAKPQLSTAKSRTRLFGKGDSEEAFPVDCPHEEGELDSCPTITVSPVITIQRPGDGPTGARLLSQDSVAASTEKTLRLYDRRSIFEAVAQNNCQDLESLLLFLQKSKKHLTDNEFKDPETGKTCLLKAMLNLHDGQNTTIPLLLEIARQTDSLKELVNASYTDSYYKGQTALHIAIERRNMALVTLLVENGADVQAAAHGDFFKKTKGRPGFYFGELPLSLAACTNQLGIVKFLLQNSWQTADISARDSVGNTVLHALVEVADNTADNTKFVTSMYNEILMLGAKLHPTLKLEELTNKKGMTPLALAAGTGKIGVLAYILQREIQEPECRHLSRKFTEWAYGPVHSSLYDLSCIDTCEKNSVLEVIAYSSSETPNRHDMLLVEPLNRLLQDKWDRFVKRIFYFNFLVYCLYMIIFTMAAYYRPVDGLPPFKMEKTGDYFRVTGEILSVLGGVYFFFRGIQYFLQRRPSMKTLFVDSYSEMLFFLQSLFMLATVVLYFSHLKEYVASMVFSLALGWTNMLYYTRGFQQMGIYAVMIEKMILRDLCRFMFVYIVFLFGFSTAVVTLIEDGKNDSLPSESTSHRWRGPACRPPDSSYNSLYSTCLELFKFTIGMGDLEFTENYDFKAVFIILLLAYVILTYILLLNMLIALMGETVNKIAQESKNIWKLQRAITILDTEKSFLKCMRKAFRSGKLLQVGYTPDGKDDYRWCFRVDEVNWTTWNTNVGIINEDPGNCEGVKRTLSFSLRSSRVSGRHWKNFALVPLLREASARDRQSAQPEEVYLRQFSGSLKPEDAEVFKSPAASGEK
UniProt Q96NY8, sequence (whole entry, looked up): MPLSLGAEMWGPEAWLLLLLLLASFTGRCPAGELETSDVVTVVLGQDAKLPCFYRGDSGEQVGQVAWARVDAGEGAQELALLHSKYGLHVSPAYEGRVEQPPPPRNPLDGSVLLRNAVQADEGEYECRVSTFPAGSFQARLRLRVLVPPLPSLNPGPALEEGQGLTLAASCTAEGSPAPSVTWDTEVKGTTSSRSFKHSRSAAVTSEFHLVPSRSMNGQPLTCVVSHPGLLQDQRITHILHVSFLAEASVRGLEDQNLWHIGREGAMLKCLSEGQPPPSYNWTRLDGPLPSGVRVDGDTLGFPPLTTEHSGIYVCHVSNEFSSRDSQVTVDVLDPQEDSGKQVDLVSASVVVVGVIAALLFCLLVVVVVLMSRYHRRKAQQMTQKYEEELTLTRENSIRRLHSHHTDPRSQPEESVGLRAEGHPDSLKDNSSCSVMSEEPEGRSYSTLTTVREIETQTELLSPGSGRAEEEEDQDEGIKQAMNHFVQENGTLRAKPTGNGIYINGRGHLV
UniProt P41595, sequence (whole entry, looked up): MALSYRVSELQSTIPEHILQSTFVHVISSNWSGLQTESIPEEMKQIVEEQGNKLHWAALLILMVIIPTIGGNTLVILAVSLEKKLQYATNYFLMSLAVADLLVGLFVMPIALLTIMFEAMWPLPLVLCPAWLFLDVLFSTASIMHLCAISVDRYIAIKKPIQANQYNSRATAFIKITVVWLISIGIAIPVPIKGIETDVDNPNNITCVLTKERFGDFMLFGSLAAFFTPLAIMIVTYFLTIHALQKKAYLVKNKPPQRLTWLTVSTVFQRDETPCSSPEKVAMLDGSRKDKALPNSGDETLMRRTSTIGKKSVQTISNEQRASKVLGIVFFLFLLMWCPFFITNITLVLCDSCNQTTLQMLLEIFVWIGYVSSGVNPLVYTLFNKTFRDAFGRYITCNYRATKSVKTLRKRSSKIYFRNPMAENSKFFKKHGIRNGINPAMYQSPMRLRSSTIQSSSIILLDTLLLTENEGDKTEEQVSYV
UniProt Q13523, sequence (whole entry, looked up): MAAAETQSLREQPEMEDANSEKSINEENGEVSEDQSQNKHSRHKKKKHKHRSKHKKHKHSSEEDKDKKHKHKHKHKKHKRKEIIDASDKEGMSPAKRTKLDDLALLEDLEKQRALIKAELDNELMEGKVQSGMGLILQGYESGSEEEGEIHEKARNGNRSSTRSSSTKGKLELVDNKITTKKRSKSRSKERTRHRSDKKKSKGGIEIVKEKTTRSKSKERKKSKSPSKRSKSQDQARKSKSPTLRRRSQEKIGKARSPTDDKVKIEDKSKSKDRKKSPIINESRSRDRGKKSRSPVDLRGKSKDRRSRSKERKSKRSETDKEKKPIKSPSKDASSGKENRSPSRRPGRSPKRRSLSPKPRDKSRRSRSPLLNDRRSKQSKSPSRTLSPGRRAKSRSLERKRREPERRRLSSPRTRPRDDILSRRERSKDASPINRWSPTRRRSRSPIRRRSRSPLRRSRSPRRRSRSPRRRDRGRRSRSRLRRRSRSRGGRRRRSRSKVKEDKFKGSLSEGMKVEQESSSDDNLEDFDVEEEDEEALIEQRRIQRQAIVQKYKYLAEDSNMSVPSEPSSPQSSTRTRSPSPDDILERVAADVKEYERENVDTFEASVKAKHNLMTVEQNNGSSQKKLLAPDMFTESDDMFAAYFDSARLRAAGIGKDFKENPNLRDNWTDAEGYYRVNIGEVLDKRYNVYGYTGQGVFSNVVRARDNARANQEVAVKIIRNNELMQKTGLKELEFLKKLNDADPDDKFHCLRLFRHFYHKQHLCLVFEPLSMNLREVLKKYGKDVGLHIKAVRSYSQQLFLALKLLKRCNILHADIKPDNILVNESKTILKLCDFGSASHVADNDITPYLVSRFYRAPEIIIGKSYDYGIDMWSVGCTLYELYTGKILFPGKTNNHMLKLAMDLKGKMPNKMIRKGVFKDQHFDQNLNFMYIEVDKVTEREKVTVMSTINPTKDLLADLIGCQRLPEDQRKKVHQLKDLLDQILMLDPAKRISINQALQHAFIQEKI
UniProt P22736, sequence (whole entry, looked up): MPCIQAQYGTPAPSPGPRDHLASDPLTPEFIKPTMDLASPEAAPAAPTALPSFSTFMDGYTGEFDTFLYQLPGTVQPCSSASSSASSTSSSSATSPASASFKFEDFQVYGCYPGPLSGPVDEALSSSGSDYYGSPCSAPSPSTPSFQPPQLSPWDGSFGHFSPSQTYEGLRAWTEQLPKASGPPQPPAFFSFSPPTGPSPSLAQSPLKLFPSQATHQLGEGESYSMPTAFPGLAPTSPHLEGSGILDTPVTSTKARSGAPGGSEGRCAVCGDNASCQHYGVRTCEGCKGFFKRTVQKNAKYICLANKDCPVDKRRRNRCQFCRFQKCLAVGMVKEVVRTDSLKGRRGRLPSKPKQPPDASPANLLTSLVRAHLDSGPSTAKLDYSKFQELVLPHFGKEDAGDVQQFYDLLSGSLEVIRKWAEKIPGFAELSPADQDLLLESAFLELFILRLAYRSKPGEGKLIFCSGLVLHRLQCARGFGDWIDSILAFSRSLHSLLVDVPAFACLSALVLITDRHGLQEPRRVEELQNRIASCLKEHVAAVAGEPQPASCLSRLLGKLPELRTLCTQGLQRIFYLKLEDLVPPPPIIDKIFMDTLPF
UniProt P05164, sequence (whole entry, looked up): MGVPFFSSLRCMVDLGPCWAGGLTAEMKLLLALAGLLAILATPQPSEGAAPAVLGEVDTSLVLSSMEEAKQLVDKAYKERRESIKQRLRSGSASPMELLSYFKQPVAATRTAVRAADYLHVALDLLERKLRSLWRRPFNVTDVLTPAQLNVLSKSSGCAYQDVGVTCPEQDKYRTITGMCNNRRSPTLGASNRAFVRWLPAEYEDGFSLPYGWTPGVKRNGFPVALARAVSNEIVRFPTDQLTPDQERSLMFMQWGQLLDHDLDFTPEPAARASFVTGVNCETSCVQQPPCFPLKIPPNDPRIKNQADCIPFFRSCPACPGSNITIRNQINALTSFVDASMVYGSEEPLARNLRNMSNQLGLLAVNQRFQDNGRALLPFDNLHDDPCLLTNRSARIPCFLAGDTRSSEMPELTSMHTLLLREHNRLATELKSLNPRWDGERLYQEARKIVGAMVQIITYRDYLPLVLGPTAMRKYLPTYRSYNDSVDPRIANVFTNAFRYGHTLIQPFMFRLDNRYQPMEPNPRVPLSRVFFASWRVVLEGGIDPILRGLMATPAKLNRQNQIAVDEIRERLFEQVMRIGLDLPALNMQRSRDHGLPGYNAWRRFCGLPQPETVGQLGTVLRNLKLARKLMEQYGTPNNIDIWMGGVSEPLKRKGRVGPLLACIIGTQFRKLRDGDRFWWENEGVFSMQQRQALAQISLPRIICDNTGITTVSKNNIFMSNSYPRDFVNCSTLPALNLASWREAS
UniProt P19440, sequence (whole entry, looked up): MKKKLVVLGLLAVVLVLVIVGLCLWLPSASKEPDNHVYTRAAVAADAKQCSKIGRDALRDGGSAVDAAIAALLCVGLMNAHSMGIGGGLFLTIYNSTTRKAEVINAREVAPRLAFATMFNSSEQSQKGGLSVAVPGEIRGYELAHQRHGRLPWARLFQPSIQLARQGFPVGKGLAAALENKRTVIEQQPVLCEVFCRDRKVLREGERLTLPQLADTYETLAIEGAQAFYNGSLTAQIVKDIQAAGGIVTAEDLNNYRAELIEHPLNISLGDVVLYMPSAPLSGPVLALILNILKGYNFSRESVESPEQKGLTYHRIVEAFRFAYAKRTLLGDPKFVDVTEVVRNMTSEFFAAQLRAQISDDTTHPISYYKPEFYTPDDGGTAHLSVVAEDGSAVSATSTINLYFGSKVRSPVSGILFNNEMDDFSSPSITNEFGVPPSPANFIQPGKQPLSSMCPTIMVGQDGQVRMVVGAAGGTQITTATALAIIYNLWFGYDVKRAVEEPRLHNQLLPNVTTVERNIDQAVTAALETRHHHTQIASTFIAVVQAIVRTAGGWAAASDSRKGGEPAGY

| Compound | target | assay | test system | conditions | how to read | measurement | value |
| --- | --- | --- | --- | --- | --- | --- | --- |
| Nc1ncnc2c1ncn2[C@@H]1O[C@H](COP(=O)(O)O)[C@@H](O)[C@H]1O | T1, ssDNA, aptamer | ITC | – | – | – | Kd | 126 µM |
| Cc1cc2nc3[nH]c(=O)[nH]c(=O)c3nc2cc1C | T2, riboswitch RNA yjdF aptamer (Bacillus subtilis) | fluorescence titration | – | with: 380 nM lumichrome | – | Kd | 0.8 µM |
| CC[C@@H]1[C@H](F)C(=O)N[C@@H]1COc1nccc2cc(C(N)=O)c(OC)cc12 | PRPF4B (Homo sapiens, UniProt Q13523) | ATP-site probe binding, ActivX profiling | THP-1 cell lysate | 0.01 mM, Lys1 site | – | inhibition | -2.3% |
| O=S(=O)(O)O | GUK1 (Homo sapiens, UniProt Q16774) | enzyme activity, NADH-coupled | – | 1 mM, with: ATP 4000 µM | – | reaction velocity | 0.146 µM/s and 0.153 µM/s and 0.145 µM/s |
| COc1ccc2c(c1)C(=O)N(CCCN1CCN(c3ccccc3OC)CC1)C2 | HTR2B (Homo sapiens, UniProt P41595) | radioligand binding | – | concentration not given, with: [3H]LSD | – | inhibition | 95.3% |
| NC/C(=C\F)COc1cccc(Cn2c(=S)[nH]c(=O)c3[nH]cnc32)c1 | Myeloperoxidase (MPO, Homo sapiens, UniProt P05164) | H2O2 consumption, inhibitor, H2O2 electrode | – | 0.25 µM, 0.1 s | – | H2O2 concentration | -0.997 µM |
| O=C(C=Cc1cccc(F)c1)Nc1cc(-c2ccnc(N3CCC(O)CC3)c2)ccn1 | Nuclear receptor subfamily 4 group A member 1 (NR4A1, Homo sapiens, UniProt P22736) | SPR | – | 10.0 µM | – | binding response | 17.7 RU |
| O=C(O)c1ccc(Nc2ncc3c(n2)-c2ccc(Cl)cc2C(c2c(F)cccc2F)=NC3)cc1 | MELK(h) | kinase activity | – | 1 µM | – | remaining activity | 79% |
| COc1ccc(Cc2nnc(NS(=O)(=O)c3ccc4ccccc4c3)s2)cc1 | Glutathione hydrolase 1 proenzyme, without transmembrane domain (Homo sapiens, UniProt P19440) | GSH hydrolysis, uncompetitive inhibitor | – | 37 °C, binds gamma-glutamyl enzyme, with: GSH 5-20 µM | – | Kii | 206 ± 37 µM |
| COc1cc(CNC(=O)CCCC/C=C/C(C)C)ccc1O | TRPV1 (Homo sapiens, UniProt Q8NER1, F496Q) | agonist, outside-out patch clamp | – | F496Q mutant | – | Hill coefficient | 1.3 |
| CCCC[C@@H]1NC(=O)[C@H](Cc2ccc(O)cc2)NC(=O)[C@@H]2CCCN2C(=O)[C@H](CC(=O)O)NC(=O)[C@H](C)NC(=O)[C@H](Cc2ccccc2)NC(=O)[C@@H]2CSCCC(=O)N3CN(CN(C3)C(=O)CCSC[C@H](NC(C)=O)C(=O)N[C@@H](CC(C)(C)C)C(=O)N[C@@H](CCC(=O)O)C(=O)N[C@@H](CCC(=O)O)C(=O)N[C@H](CCCCNC(=O)CCc3cn(CCOCCOCCOCCN(CCOCCOCCOCCC(=O)N[C@H]4CSCCC(=O)N5CN6CN(C5)C(=O)CCSC[C@H](NC(=O)[C@@H](CC(=O)O)NC(=O)[C@H](Cc5cccc7ccccc57)NC(=O)[C@@H]5CCCN5C4=O)C(=O)N[C@@H](CCSC)C(=O)N[C@@H](CCCCNC(=N)N)C(=O)N[C@@H](CC(=O)O)C(=O)N[C@@H](Cc4c[nH]c5ccccc45)C(=O)N[C@@H](CO)C(=O)N[C@@H]([C@@H](C)O)C(=O)N4CCC[C@H]4C(=O)N4C[C@H](O)C[C@H]4C(=O)N[C@@H](Cc4c[nH]c5ccccc45)C(=O)N[C@H](C(N)=O)CSCCC6=O)CCOCCOCCOCCn4cc(CCC(=O)NCCCC[C@H]5NC(=O)[C@H](CCC(=O)O)NC(=O)[C@H](CCC(=O)O)NC(=O)[C@H](CC(C)(C)C)NC(=O)[C@@H](NC(C)=O)CSCCC(=O)N6CN7CN(C6)C(=O)CCSC[C@H](NC(=O)[C@H](Cc6ccc(O)cc6)NC(=O)[C@@H]6CCCN6C5=O)C(=O)N[C@@H](Cc5ccccc5)C(=O)N[C@@H](C)C(=O)N[C@@H](CC(=O)O)C(=O)N5CCC[C@H]5C(=O)N[C@@H](Cc5ccc(O)cc5)C(=O)N[C@@H](CCCC)C(=O)N[C@H](C(N)=O)CSCCC7=O)nn4)nn3)C(=O)N3CCC[C@H]3C(=O)N[C@@H](Cc3ccc(O)cc3)C(=O)N2)C(=O)CCSC[C@@H](C(N)=O)NC1=O | Tumor necrosis factor receptor superfamily member 9/Nectin-4 (Homo sapiens, UniProt Q07011+Q96NY8) | reporter gene, agonist | HT-1376 coculture with reporter cells | – | relative to: background | Emax | 63 fold |
| O=c1nc(SCc2ccc(C(F)(F)F)cc2)nc(SCc2csc3ccc(Cl)cc23)[nH]1 | TOP2A (Homo sapiens, UniProt P11388) | decatenation | – | 0.49 µM, replicate 1 | – | decatenated DNA | 0% |

For quick reference, copied from above:
| Compound | target | assay | test system | conditions | how to read | measurement | value |
| --- | --- | --- | --- | --- | --- | --- | --- |
| COc1ccc(Cc2nnc(NS(=O)(=O)c3ccc4ccccc4c3)s2)cc1 | Glutathione hydrolase 1 proenzyme, without transmembrane domain (Homo sapiens, UniProt P19440) | GSH hydrolysis, uncompetitive inhibitor | – | 37 °C, binds gamma-glutamyl enzyme, with: GSH 5-20 µM | – | Kii | 206 ± 37 µM |
